Experimental data from different studies.
Protocols differ between the studies behind these lines. ± marks the error that the study gave. Bridges are numbered along the chain shown (N, C = ends).
B1: disulfide; chain MRGSHHHHHHGSNEKGETSEKTIVRANGTRLEYTDIKSDGIEGRVDGGGGSDDDDKMACPRGIGLQCGGGS (disulfide 59-67 (inferred))

`CCc1c(C)nc(-n2nc(C)cc2NC(=O)c2ccccc2SC)[nH]c1=O` has an EC50 of 0.079 ± 0.0084 µM (Leishmania amazonensis; alamarBlue; axenic amastigotes; 72 h).
`C[C@H](Cn1cnc2c(=O)[nH]c(=O)[nH]c21)OCP(=O)(O)O` gave an EC50 of > 100 µM (Human alphaherpesvirus 3; plaque formation, inhibitor; HEL).
The EC50 of `COc1cc([C@@H]2c3cc4c(cc3C(=O)[C@H]3COC(=O)[C@H]23)OCO4)cc(OC)c1OC` is reported as > 100 µM (Leishmania infantum; parasite growth; promastigote).
The EC50 of `CCOP(=O)(OCC)[C@@H]1C[C@@H](Cn2c(=O)n(C(=O)c3cccc(F)c3)c(=O)c3ccccc32)ON1Cc1ccccc1` (relative stereo) is reported as 6 to 8.5 µM (human alphaherpesvirus 3; viral replication, plaque reduction; HEL, Oka TK+).
For `CSc1ccc(OCc2ncc([N+](=O)[O-])n2C)cc1`, the EC50 was 3.2 ± 0.3 µM (Leishmania donovani; intracellular amastigotes in macrophages, LdBOB, nitroreductase-overexpressing).
With `Cc1ccc(S(=O)(=O)N2C(=O)CSC2c2cccc([N+](=O)[O-])c2)cc1` (centres unmarked) the EC50 was > 100 µM (herpes simplex virus 2; viral cytopathicity; HEL, G).
For `CCN(CC)S(=O)(=O)c1ccc(C(=O)Nc2cc(C)nn2-c2nc(C)c(C)c(=O)[nH]2)cc1`, the EC50 was 0.24 ± 0.07 µM (Leishmania amazonensis; alamarBlue; axenic amastigotes; 72 h).
`Cc1cc(NS(=O)(=O)c2ccc(N)cc2)no1` gave an EC50 of 12 ± 4 µg/mL (Human gammaherpesvirus 8; latent viral DNA; BC-3).
The EC50 of `COC(=O)N[C@H](C(=O)N1CCC[C@H]1c1ncc(-c2ccc(-c3ccc(-c4cnc([C@@H]5CCCN5C(=O)[C@@H](NC(=O)OC)C(C)C)[nH]4)cc3)cc2)[nH]1)C(C)C` is reported as 0.0087 ± 0.0019 µM (hepatitis C virus; viral replication, transient replicon; genotype 1a NS5A Q30H).
`Cc1ccc(S(=O)(=O)N2C(=O)CSC2c2ccc([N+](=O)[O-])cc2)cc1` (centres unmarked) gave an EC50 of > 125 µM (HIV-2; viral cytopathicity, MTT; MT-4, ROD).
For `Nc1ccc(S(N)(=O)=O)cc1`, the EC50 was 8 ± 4 µg/mL (Human gammaherpesvirus 8; latent viral DNA; BC-3).
The EC50 of `CC(=CC(=O)NCCCCNc1cc(C(F)(F)F)nc2c(C(F)(F)F)cccc12)C(=O)NCCCCNc1cc(C(F)(F)F)nc2c(C(F)(F)F)cccc12` is reported as 3.15 µM (Coxsackievirus B4; viral cytopathic effect, visual CPE scoring; HEp-2).
With `O=c1[nH]c(=O)n([C@H]2C[C@H](O)[C@@H](CO)O2)cc1/C=C/Br` the EC50 was 26 to 165 µM (Human alphaherpesvirus 3; viral replication; HEL, TK-deficient 07-1 and YS-R).
For `Cc1ccc(S(=O)(=O)N2C(=O)CSC2c2ccccc2Cl)cc1` (centres unmarked), the EC50 was > 100 µM (herpes simplex virus 2; viral cytopathicity; HEL, G).
`C=C1[C@H](CO)[C@@H](O)C[C@@H]1n1cnc2c(=O)[nH]c(N)nc21` gave an EC50 of 0.008 ± 0.001 µM (hepatitis B virus; viral replication; HepG2.2.15).
`CC1CS(=O)(=O)CCN1/N=C/c1ccc([N+](=O)[O-])o1` (centres unmarked) has an EC50 of 2.4 ± 0.1 µM (Trypanosoma brucei brucei; parasite viability; bloodstream form 427; 72 h).
The EC50 of `Cc1ccc(S(=O)(=O)N2C(=O)CSC2c2ccc(Cl)cc2)cc1` (centres unmarked) is reported as > 125 µM (HIV-2; viral cytopathicity, MTT; MT-4, ROD).
`CN[C@@](C)(C[18F])C(=O)O` gave a tracer uptake of 1.9 %ID/g (A549 tumour model; host not given, blood; 30 min, tumour-bearing).
With `Cc1ccc(S(=O)(=O)N2C(=O)CSC2c2ccccc2)cc1` (centres unmarked) the EC50 was > 100 µM (herpes simplex virus 2; viral cytopathicity; HEL, G).
With `B1` the EC50 was 0.83 µM (Borrelia garinii; cyst to spirochete conversion, flow cytometry; SKT-7.1; 16 h).
`Cc1ccc(S(=O)(=O)N2C(=O)CSC2c2ccc(C(C)C)cc2)cc1` (centres unmarked) gave an EC50 of > 125 µM (HIV-2; viral cytopathicity, MTT; MT-4, ROD).
`NC(=O)c1ncn([C@@H]2O[C@H](CO)[C@@H](O)[C@H]2O)n1` gave an EC50 of 109 µM (Coxsackievirus B4; viral cytopathic effect, MTS; HEp-2).
With `Cc1c(C(=O)C(=O)NCc2cn(CCCCCCCCCCCCCCn3cc(CNC(=O)C(=O)c4c(C)c(C(=O)Nc5ccc(F)c(F)c5)n(C)c4C)nn3)nn2)c(C)n(C)c1C(=O)Nc1ccc(F)c(F)c1` the EC50 was 0.067 ± 0.053 µM (hepatitis B virus; viral replication, immunofluorescence, measured: HBcAg; HBV-infected HepG2-NTCP cells; 7 days post-infection, dosed from 24 h pre-infection).
For `Cn1cnc(S(=O)(=O)N2CCCCN3[C@H](CO)[C@@H](c4ccc(-c5ccc(F)cc5)cc4)[C@@H]3C2)c1`, the EC50 was 6.1 µM (Respiratory syncytial virus; cytopathic effect; A2).
For `COc1ccc(-n2c(SC(C)C(=O)Nc3ccc(C)cc3Cl)nc3ccccc32)cc1` (centres unmarked), the EC50 was 0.17 µM (Measles morbillivirus; viral replication; Alaska).
For `O=C(N/N=C1\C(=O)Nc2ccccc21)N/N=C1\C(=O)Nc2ccccc21`, the EC50 was > 20 µM (varicella-zoster virus; plaque formation; HEL, TK+).
For `O.O.O.O.O.O.O.O.O.O=C([O-])[C@@H]1[O][Sb](=[O])([O][Sb]2(=[O])[O][C@H]([C@H](O)CO)[C@H](O)[C@H](C(=O)[O-])[O]2)[O][C@H]([C@H](O)CO)[C@@H]1O.[Na+].[Na+].[Na+]` (some centres unmarked), the EC50 was 120 ± 18 µg/mL (Leishmania amazonensis; parasite infection; THP-1, eGFP-expressing amastigotes).
With `CCOP(=O)(OCC)[C@H]1C[C@@H](Cn2c(=O)n(C(=O)c3ccccc3)c(=O)c3ccccc32)ON1C` the EC50 was 6.9 to 7.5 µM (human alphaherpesvirus 3; viral replication, plaque reduction; HEL, Oka TK+).
With `C[C@H](Cn1cnc2c(N)ncnc21)OCP(=O)(O)O` the EC50 was 141 ± 53 µg/mL (human alphaherpesvirus 1; viral replication; human keratinocytes; 72 h).
`CC1SC2(CCCCC2)N(NC(=O)Cc2csc3nc(-c4ccc(Br)cc4)cn23)C1=O` (centres unmarked) gave an EC50 of > 100 µg/mL (feline coronavirus; viral cytopathic effect; CRFK).
With `Cc1ccc(S(=O)(=O)N2C(=O)CSC2c2cccc(Br)c2)cc1` (centres unmarked) the EC50 was > 100 µM (herpes simplex virus 2; viral cytopathicity; HEL, G).
With `CC1(C)N=C(N)N=C(N)N1c1ccc(Cl)c(Cl)c1` the EC50 was ~0.008 µM (human respiratory syncytial virus; cytopathic effect, microscopy; HeLa, Long).
The EC50 of `C[C@H](Cn1cnc2c(N)ncnc21)OCP(=O)(O)O` is reported as 2.4 ± 0.2 µM (hepatitis B virus; viral replication; HepG2.2.15).
With `CCCCCC[C@H]1C(=O)O[C@H](C)[C@H](NC(=O)c2cccc(NC=O)c2O)C(=O)O[C@@H](C)[C@@H]1OC(=O)CC(C)C` the EC50 was 75 µM (Feline infectious peritonitis virus; viral replication, visual scoring; 48 h).
With `COc1ccc(CC(CC(=O)O)C(=O)O)cc1OC` (centres unmarked) the EC50 was 75 µM (hepatitis C virus; viral RNA replication; Huh-7 with HCV replicon, genotype 2a; 48 h).
With `NC(=O)c1ncn([C@@H]2O[C@H](CO)[C@@H](O)[C@H]2O)n1` the EC50 was 2.6 µM (human respiratory syncytial virus; viral replication; BEAS-2B).
`C[C@@]1(O)[C@H](O)[C@@H](CO)O[C@H]1n1ccc(=O)[nH]c1=O` gave an EC50 of 6.31 µM (hepatitis C virus; viral replication, luciferase reporter; genotype 1b Con1 replicon; 72 h).
`C[C@H](NP(=O)(OCCOCn1cnc2c(=O)[nH]c(N)nc21)Oc1cccc2ccccc12)C(=O)OC(C)(C)C` (some centres unmarked) has an EC50 of ≥ 50 µM (herpes simplex virus 2; cytopathic effect; HEL fibroblasts, G).
`CCCC(=O)OCSc1ccccc1C(=O)NCCC(N)=O` gave an EC50 of 0.6 µM (HIV-1; viral replication; human monocytes/macrophages, subtype B 91US005, CCR5-tropic).
`C/C(O)=C(\C#N)C(=O)Nc1ccc(C(F)(F)F)cc1` has an EC50 of 67.2 µM (human coronavirus OC43; viral RNA, qPCR; Huh-7; 7 d).
`O=C(Nc1ccc(F)c(-c2nc3ncc(-c4ccccc4)cc3[nH]2)c1)N1CCCC1` has an EC50 of 0.16 ± 0.0018 µM (Leishmania amazonensis; alamarBlue; axenic amastigotes; 72 h).
The EC50 of `CN[C@@H]1[C@H](O[C@@H]2OC[C@@H](O)[C@H](O)[C@H]2O)[C@@H](O)[C@H](O[C@H]2c3cc(C)c(C(=O)N[C@H](C)C(=O)O)c(O)c3-c3c(cc4c(c3O)C(=O)c3cc(OC)cc(O)c3C4=O)[C@@H]2O)O[C@@H]1C` is reported as > 120 µM (feline coronavirus; viral cytopathicity, MTT; FCWF, FIPV 79-1146, serotype II; 48 h).
`Cc1ccc(S(=O)(=O)N2C(=O)CSC2c2ccccc2F)cc1` (centres unmarked) gave an EC50 of 111 µM (HIV-2; viral cytopathicity, MTT; MT-4, ROD).
`CC(C)[C@]12O[C@H]1[C@@H]1O[C@]13[C@]1(O[C@H]1C[C@H]1C4=C(CC[C@@]13C)C(=O)OC4)[C@@H]2O` has an EC50 of 0.4 µM (human respiratory syncytial virus; viral replication; BEAS-2B).

Excerpt of the above:
`CC1SC2(CCCCC2)N(NC(=O)Cc2csc3nc(-c4ccc(Br)cc4)cn23)C1=O` (centres unmarked) gave an EC50 of > 100 µg/mL (feline coronavirus; viral cytopathic effect; CRFK).
With `Cc1ccc(S(=O)(=O)N2C(=O)CSC2c2cccc(Br)c2)cc1` (centres unmarked) the EC50 was > 100 µM (herpes simplex virus 2; viral cytopathicity; HEL, G).
With `CC1(C)N=C(N)N=C(N)N1c1ccc(Cl)c(Cl)c1` the EC50 was ~0.008 µM (human respiratory syncytial virus; cytopathic effect, microscopy; HeLa, Long).
The EC50 of `C[C@H](Cn1cnc2c(N)ncnc21)OCP(=O)(O)O` is reported as 2.4 ± 0.2 µM (hepatitis B virus; viral replication; HepG2.2.15).
With `CCCCCC[C@H]1C(=O)O[C@H](C)[C@H](NC(=O)c2cccc(NC=O)c2O)C(=O)O[C@@H](C)[C@@H]1OC(=O)CC(C)C` the EC50 was 75 µM (Feline infectious peritonitis virus; viral replication, visual scoring; 48 h).
With `COc1ccc(CC(CC(=O)O)C(=O)O)cc1OC` (centres unmarked) the EC50 was 75 µM (hepatitis C virus; viral RNA replication; Huh-7 with HCV replicon, genotype 2a; 48 h).
With `NC(=O)c1ncn([C@@H]2O[C@H](CO)[C@@H](O)[C@H]2O)n1` the EC50 was 2.6 µM (human respiratory syncytial virus; viral replication; BEAS-2B).
